Assay results gathered from unrelated publications.
± gives the spread as reported.
Chain of UniProt Q15208 (whole entry, looked up): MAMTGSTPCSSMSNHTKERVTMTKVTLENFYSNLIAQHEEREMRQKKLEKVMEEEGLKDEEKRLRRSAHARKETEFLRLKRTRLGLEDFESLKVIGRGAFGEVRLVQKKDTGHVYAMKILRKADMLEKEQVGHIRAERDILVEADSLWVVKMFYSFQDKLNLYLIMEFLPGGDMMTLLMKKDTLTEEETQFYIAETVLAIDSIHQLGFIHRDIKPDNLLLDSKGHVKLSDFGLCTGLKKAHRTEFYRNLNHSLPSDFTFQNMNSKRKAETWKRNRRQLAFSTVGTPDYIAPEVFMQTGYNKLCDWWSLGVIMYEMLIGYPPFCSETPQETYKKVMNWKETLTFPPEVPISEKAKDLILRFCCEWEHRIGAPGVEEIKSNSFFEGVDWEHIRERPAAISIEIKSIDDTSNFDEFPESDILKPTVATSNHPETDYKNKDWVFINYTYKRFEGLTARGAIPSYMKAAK

| Structure (SMILES) | tested on | assay | test system | setting | how to read | measurement | result |
| --- | --- | --- | --- | --- | --- | --- | --- |
| CCOC(=O)c1nn(-c2ccccc2)c(C#N)c1NC(=O)c1nn(CC)cc1Cl | human PBMC monocytes | phagocytosis of anti-D RBCs |  |  |  | IC50 | > 100000 nM |
| CC(C)C[C@H](NC(=O)[C@H](Cc1ccccc1)NC(=O)c1cnccn1)B(O)O | MCAS | cell growth, CellTiter-Glo | ovary |  |  | IC50 | 8.5 nM |
| C=CC(=O)Nc1cc(Nc2nccc(-c3cn(C)c4ccccc34)n2)c(OC)cc1N(C)CCN(C)C | Ba/F3 EGFR 19Del/T790M/C797S | cell growth |  | 72 h |  | IC50 | 1130 nM |
| CC#CC(=O)N1CCC[C@H]1c1nc(-c2ccc(C(=O)Nc3ccccn3)cc2)c2c(N)nccn12 | TMD8 RAC2 knockout | calcium flux, FLIPR |  | 2 h preincubation |  | IC50 | 11 nM |
| CC(C)(C)c1cnc(CSc2cnc(NC(=O)C3CCN(C(=O)CCCCCCCCCN4Cc5cc6c(cc5C4)C(=O)N(C4CCC(=O)NC4=O)C6=O)CC3)s2)o1 (stereo not drawn) | TC-71 | cell growth, MTT |  | 72 h |  | IC50 | 71.7 ± 2.4 nM |
| CN1CC(Oc2cnc(C#N)cc2-c2ccn3nc(NC(=O)C4CC4)cc3c2)C1 | dendritic cells, mouse, bone marrow-derived | cytokine release, refers to: TNF |  | added: LPS |  | IC50 | 5920 nM |
| CC1(C)COc2ccc(F)cc2CN2c3nc4c(cnn4cc3OC[C@H]2C(F)F)C(=O)N1 | KARPAS-299 (NPM1-ALK) | cell viability |  |  |  | IC50 | 9.85 nM |
| CCCCN1C[C@H](O)[C@@H](O)[C@@H](O)[C@H]1CO | sample G patient fibroblasts | GlcCer level lowering, LC-MS/MS, refers to: GlcCer d18:1/24:1 |  | 216 h |  | IC50 | 30900 nM |
| CC1=CC(=O)C(C(C)C)=CC1=O | HK-2 | cell viability, CCK-8 |  | 48 h |  | IC50 | 58000 ± 4120 nM |
| O=C(C[C@@H](C(F)F)n1ccc(F)n1)N1CCC(O)(Cn2cnc3c(cnn3-c3ccc(F)cc3)c2=O)CC1 | CHP-212 | cell viability, SRB |  | mean of replicates |  | IC50 | 58.7 nM |
| C[C@H]1Oc2cc(cnc2N)-c2c(nn(C)c2C#N)CN(C)C(=O)c2ccc(F)cc21 | ALK fusion wild-type cell lines | cell viability |  | geometric mean over 8 lines |  | IC50 | < 2.1 nM |
| C=CC(=O)N1CCC[C@@H](c2ccc(C(N)=O)c3[nH]ccc23)C1 | Ramos | calcium flux, FLIPR |  | 2 h preincubation |  | IC50 | > 1000 nM |
| COc1ccc(-c2cncc(N[C@@H](C)c3cccc(NC(=O)c4cncc(C)c4)c3)n2)cc1OC | NCI-H1703 | HTRF, refers to: ERK phosphorylation |  | added: PDGF-BB |  | IC50 | 70 nM |
| CCNCCCn1c2c(c3cc(OC)c(OC)cc3c1=O)C(=O)c1cc3c(nc1-2)OCO3 | TC-106 Ewing sarcoma cells | cytotoxicity, MTS |  | 72 h |  | IC50 | 157 ± 2 nM |
| CCOC(=O)c1nn(-c2ccccc2)c(C#N)c1N | human PBMC monocytes | phagocytosis of anti-D RBCs |  |  |  | IC50 | 53300 ± 17400 nM |
| Cc1nc(NC(=O)N2CCC[C@H]2C(N)=O)sc1-c1ccnc(C(C)(C)C(F)(F)F)c1 | Detroit 562 | CellTiter-Glo |  | 120 h |  | IC50 | 10500 nM |
| COc1cc2c3c(n(CCCNC(C)C)c(=O)c2cc1OC)-c1nc2c(cc1C3=O)OCO2 | TC-106 Ewing sarcoma cells | cytotoxicity, MTS |  | 72 h |  | IC50 | 202 ± 5 nM |
| Cc1nc(NC(=O)N2CCC[C@H]2C(N)=O)sc1-c1ccnc(C(C)(C)C(F)(F)F)c1 | T47D | Akt phosphorylation, inhibitor, in-cell western, refers to: Akt pSer473 |  | 2 h |  | IC50 | 43.8 nM |
| Cc1cc(Nc2ncc(Cl)c(Nc3ccccc3S(=O)(=O)C(C)C)n2)c(OC(C)C)cc1C1CCNCC1 | ALK fusion wild-type cell lines | cell viability |  | geometric mean over 8 lines |  | IC50 | 27.8 nM |
| C=CCn1c(=O)c2cnc(Nc3ccc(N4CCN(C)CC4)cc3)nc2n1-c1ccc2c(n1)[C@@](O)(CC)CC2 | NCI-H1048 | cell viability, CellTiter-Glo |  | 72 h |  | IC50 | 310 nM |
| CC(CC(=O)O)CC(=O)O |  | binding, equilibrium dialysis LC-MS |  | 5 µM, thermostabilized A2AR-BRIL construct | relative to: no-protein control, direction not given | z-scored log2 fold change | -0.414 |
| CC(C)(C)c1cnc(CSc2cnc(NC(=O)C3CCN(C(=O)CCCCCCCCCCCN4Cc5cc6c(cc5C4)C(=O)N(C4CCC(=O)NC4=O)C6=O)CC3)s2)o1 (stereo not drawn) | TC-71 | cell growth, MTT |  | 72 h |  | IC50 | 79.9 ± 5.8 nM |
| CCC(=O)N1CCC(COCC(=O)N2CCN(c3nc(-c4cnc(N)nc4C(F)F)nc(N4CCOC[C@@H]4C)n3)CC2)CC1 | SK-OV-3 | FOXO1 translocation, kinase translocation reporter |  | 2 h |  | IC50 | 214 nM |

| Structure (SMILES) | tested on | assay | test system | setting | how to read | measurement | result |
| --- | --- | --- | --- | --- | --- | --- | --- |
| C[C@H]1CN(C2COC2)CCN1c1ccc(Nc2cc(-c3ccnc(N4CCn5c(cc6c5CC(C)(C)C6)C4=O)c3CO)cn(C)c2=O)nc1 | Ramos | calcium flux, FLIPR |  | 2 h preincubation |  | IC50 | 4.56 nM |
| CC(C)C[C@@H](O)C(=O)O |  | binding, equilibrium dialysis LC-MS |  | 5 µM, thermostabilized A2AR-BRIL construct | relative to: no-protein control, direction not given | z-scored log2 fold change | -0.579 |
| CC(=O)c1c(C)c2cnc(Nc3ccc(N4CCNCC4)cn3)nc2n(C2CCCC2)c1=O | MCF7/luciferase, wild type | cell proliferation |  |  |  | IC50 | 53.8 nM |
| COC(=O)CC1CCN(C(=O)c2cc(-c3cccs3)nn2-c2ccccc2)CC1 | human PBMC monocytes | phagocytosis of anti-D RBCs |  |  |  | IC50 | 12400 ± 2700 nM |
| C=CC(=O)N1CCC(C(=O)NCCN2CCN(c3nc(-c4cnc(N)nc4C(F)F)nc(N4CCOCC4)n3)CC2)CC1 | SK-OV-3 | Akt phosphorylation, inhibitor, in-cell western, refers to: Akt pSer473 |  |  |  | IC50 | 67.6 nM |
| CC(C)(C)c1cnc(CSc2cnc(NC(=O)C3CCN(C(=O)CCCCCCCN4Cc5cc6c(cc5C4)C(=O)N(C4CCC(=O)NC4=O)C6=O)CC3)s2)o1 (stereo not drawn) | TC-71 | cell growth, MTT |  | 72 h |  | IC50 | 8.5 ± 0.2 nM |
| CCOC(=O)c1nn(-c2ccccc2)c(C#N)c1NC(=O)c1ccn(CC)n1 | human PBMC monocytes | phagocytosis of anti-D RBCs |  |  |  | IC50 | 48100 ± 6100 nM |
| C#Cc1cccc(Nc2ncnc3cc(OCCOC)c(OCCOC)cc23)c1 | C6 rat cells |  |  | 24 h |  | IC50 | > 100000 nM |
| CC(C)C[C@H](NC(=O)C[C@H](O)[C@H](CC(C)C)NC(=O)[C@H](Cc1c[nH]cn1)NC(=O)CNC(=O)[C@@H](NC(=O)[C@H](C)NC(=O)[C@H](Cc1c[nH]c2ccccc12)NC(=O)[C@H](CCC(N)=O)NC(=O)[C@@H](Cc1ccccc1)NC(=O)COCCOCCNC(=O)CCC(C(=O)O)N1CCN(CC(=O)O)CCN(CC(=O)O)CCN(CC(=O)O)CC1)C(C)C)C(N)=O (stereo partly drawn) [lutetium-177 labelled] |  |  | BALB/c nu/nu mice, salivary glands | 500 pmol, 1 h, added: PA 300 µg |  | tissue uptake | 0.3 ± 0.2 %ID/g |
| CC(C)(C)c1cnc(CSc2cnc(NC(=O)C3CCN(C(=O)CCCCCN4Cc5cc6c(cc5C4)C(=O)N(C4CCC(=O)NC4=O)C6=O)CC3)s2)o1 (stereo not drawn) | TC-71 | cell growth, MTT |  | 72 h |  | IC50 | 4.7 ± 1.4 nM |
| CN(C)C(=O)c1cc2cnc(Nc3ccc(C(=O)NCCCCCCOc4cccc5c4C(=O)N(C4CCC(=O)NC4=O)C5=O)cc3)nc2n1C1CCCC1 (stereo not drawn) | MYCN-amplified neuroblastoma cell line panel | cytotoxicity, Alamar Blue |  | 72 h |  | IC50 | 20.1 to 131 nM |
| Cc1cc(Nc2ccc(S(F)(F)(F)(F)F)cc2)n2nc(C(C)(F)F)nc2n1 | Plasmodium vivax | 12-lead ECG | malaria patients | oral, 800 mg, increase above 60 ms |  | patients with QTcF increase | 0% |
| C=CC(=O)N1CCC(COCC(=O)N2CCN(c3nc(-c4cnc(N)nc4C(F)F)nc(N4CCOC[C@@H]4C)n3)CC2)CC1 | SK-OV-3 | Akt phosphorylation, inhibitor, in-cell western, refers to: Akt pSer473 |  | 1 h |  | IC50 | 19.2 nM |
| C[C@@H]1CN(C(=O)c2ccc(NC(=O)c3cc(O[C@H](C)c4c(Cl)ccc(F)c4Cl)c(N)nn3)cc2)C[C@H](C)N1 | NB1 (ALK amplification, exon 2-3 deletion) | cell viability |  |  |  | IC50 | 5.06 nM |
| C[C@H](Nc1ccc2c(c1)OCCn1cc(N3C(=O)OC[C@H]3C(F)F)nc1-2)C(N)=O | SK-OV-3 | western blot, refers to: phospho-S6 Ser235/Ser236 |  | 2 h |  | IC50 | 36.3 nM |
| Cc1cc(N2CCc3c(c(C)nn3CC34CCC(NC(=O)[C@@H]5COCCN5)(CC3)CC4)C2)c2cnn(C)c2n1 | human PBMC | IFN-driven gene expression, inhibitor, qRT-PCR, refers to: OASL mRNA |  | two donors, added: ssRNA |  | IC50 | 1.1 ± 0.2 nM |
| C=CC(=O)N1CCC(C(=O)N(C)CC(=O)N2CCN(c3nc(-c4cnc(N)nc4C(F)F)nc(N4CCOCC4)n3)CC2)CC1 | SK-OV-3 | Akt phosphorylation, inhibitor, in-cell western, refers to: Akt pSer473 |  |  |  | IC50 | 85.1 nM |
| C=CC(=O)N1CCC[C@@H](n2nc(-c3ccc(Oc4ccccc4)cc3)c3c(N)ncnc32)C1 | TMD8 RAC2 knockout | calcium flux, FLIPR |  | 2 h preincubation |  | IC50 | 0.67 nM |
| CCOc1cc2ncc(C#N)c(Nc3ccc(OCc4ccccn4)c(Cl)c3)c2cc1NC(=O)/C=C/CN(C)C | Ba/F3 expressing HER2 L755S | cell growth, inhibitor, CellTiter-Glo |  |  |  | IC50 | 6.5 nM |
| CC[C@@H]1[C@H](F)C(=O)N[C@@H]1COc1nccc2cc(C(N)=O)c(OC)cc12 | Serine/threonine-protein kinase 38 (STK38, Homo sapiens, UniProt Q15208) | ATP-site probe binding, ActivX profiling | THP-1 cell lysate | 0.2 mM, Lys1 site |  | inhibition | 22.6% |
| C=CC(=O)N1CCC([C@@H]2CCNc3c(C(N)=O)c(-c4ccc(Oc5ccccc5)cc4)nn32)CC1 | Ramos | calcium flux, FLIPR |  | 2 h preincubation |  | IC50 | 1.87 nM |
| COc1cc(N2CCC(N3CCN(C)CC3)CC2)ccc1Nc1ncc(Cl)c(Nc2ccccc2P(C)(C)=O)n1 | NB1 (ALK amplification, exon 2-3 deletion) | cell viability |  |  |  | IC50 | 6.92 nM |

For quick reference, copied from above:
| Structure (SMILES) | tested on | assay | test system | setting | how to read | measurement | result |
| --- | --- | --- | --- | --- | --- | --- | --- |
| C=CC(=O)N1CCC(C(=O)NCCN2CCN(c3nc(-c4cnc(N)nc4C(F)F)nc(N4CCOCC4)n3)CC2)CC1 | SK-OV-3 | Akt phosphorylation, inhibitor, in-cell western, refers to: Akt pSer473 |  |  |  | IC50 | 67.6 nM |
| CC(C)(C)c1cnc(CSc2cnc(NC(=O)C3CCN(C(=O)CCCCCCCN4Cc5cc6c(cc5C4)C(=O)N(C4CCC(=O)NC4=O)C6=O)CC3)s2)o1 (stereo not drawn) | TC-71 | cell growth, MTT |  | 72 h |  | IC50 | 8.5 ± 0.2 nM |
| CCOC(=O)c1nn(-c2ccccc2)c(C#N)c1NC(=O)c1ccn(CC)n1 | human PBMC monocytes | phagocytosis of anti-D RBCs |  |  |  | IC50 | 48100 ± 6100 nM |
